Assay results collected from several papers.
Each numbered part is a random draw from the data of one study; scales do not carry over between parts. Several values in a cell are separate wells, animals, samples, runs or records.

Series 1
Target: Membrane-associated tyrosine- and threonine-specific cdc2-inhibitory kinase (PKMYT1, Homo sapiens, UniProt Q99640)
Observed: binding
Method: HTRF
Concentration: 1000 nM
Residues (Q99640 1-499): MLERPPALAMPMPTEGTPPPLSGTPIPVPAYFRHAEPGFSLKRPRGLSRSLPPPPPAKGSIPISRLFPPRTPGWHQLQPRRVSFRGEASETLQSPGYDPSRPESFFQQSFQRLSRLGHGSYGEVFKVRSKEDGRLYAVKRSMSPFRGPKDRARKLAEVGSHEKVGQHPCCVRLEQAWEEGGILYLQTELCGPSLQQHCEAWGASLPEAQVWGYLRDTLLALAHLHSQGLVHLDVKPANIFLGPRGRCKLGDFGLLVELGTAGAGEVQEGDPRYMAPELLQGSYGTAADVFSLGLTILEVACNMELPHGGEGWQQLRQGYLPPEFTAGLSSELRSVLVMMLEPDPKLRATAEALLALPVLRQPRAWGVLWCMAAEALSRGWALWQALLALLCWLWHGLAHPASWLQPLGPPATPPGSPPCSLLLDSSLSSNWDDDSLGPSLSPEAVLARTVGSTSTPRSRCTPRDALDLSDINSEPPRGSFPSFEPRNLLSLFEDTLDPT
SMILES | inhibition
Cc1ccc(O)c(C)c1-c1cnc2[nH]c(-c3cnc(N4CCC(CN5CCN(c6ccc(C(=O)NC7CCC(=O)NC7=O)c(F)c6)CC5)CC4)nc3)cc2c1C#N (racemic) | 99% and 99.7%
Cc1ccc(O)c(C)c1-c1cnc2[nH]c(-c3cnc(N4CCC(CN5CCN(c6ccc7c8c(cccc68)C(=O)N7C6CCC(=O)NC6=O)CC5)CC4)nc3)cc2c1C#N (racemic) | 99.4% and 98.5%
Cc1ccc(O)c(C)c1-c1cnc2[nH]c(-c3cnc(N4CCC(CN5CCN(c6ccc(N7CCC(=O)NC7=O)cc6F)CC5)CC4)nc3)cc2c1C#N | 99.1% and 98%

Series 2
SMILES: CCCCC[C@@H]1CC(=O)N[C@@H](C(C)C)C(=O)N[C@H](CCCNC(=N)N)C(=O)N[C@@H](C(C)C)C(=O)NCC(=O)N2CCC[C@H]2C(=O)N[C@@H](CC(C)C)C(=O)N[C@H](CCCNC(=N)N)C(=O)N[C@@H](CCC(=O)O)C(=O)N[C@H](Cc2ccc(O)cc2)C(=O)N[C@H](Cc2c[nH]c3ccccc23)C(=O)NCCCC(=O)O1
Organism: Staphylococcus aureus
Strain: USA300
Concentration: 2 x MIC
conditions | viable cells
240 min | 500 CFU/mL and 600 CFU/mL and 300 CFU/mL
120 min | 1000 CFU/mL and 800 CFU/mL
300 min | 500 CFU/mL and 600 CFU/mL and 400 CFU/mL
360 min | 500 CFU/mL and 400 CFU/mL

Series 3
SMILES: Cn1cc(-c2cccc(CN3CCC4(CC3)COc3c4ccc4c3CN([C@H]3CCC(=O)NC3=O)C4=O)c2)cn1
Action: degrader
Ikzf2/Crbn I391V: Ikzf2/Crbn (Mus musculus, UniProt P81183+Q8C7D2, I391V)
Chain of UniProt Q8C7D2 (whole entry, unmodified, looked up): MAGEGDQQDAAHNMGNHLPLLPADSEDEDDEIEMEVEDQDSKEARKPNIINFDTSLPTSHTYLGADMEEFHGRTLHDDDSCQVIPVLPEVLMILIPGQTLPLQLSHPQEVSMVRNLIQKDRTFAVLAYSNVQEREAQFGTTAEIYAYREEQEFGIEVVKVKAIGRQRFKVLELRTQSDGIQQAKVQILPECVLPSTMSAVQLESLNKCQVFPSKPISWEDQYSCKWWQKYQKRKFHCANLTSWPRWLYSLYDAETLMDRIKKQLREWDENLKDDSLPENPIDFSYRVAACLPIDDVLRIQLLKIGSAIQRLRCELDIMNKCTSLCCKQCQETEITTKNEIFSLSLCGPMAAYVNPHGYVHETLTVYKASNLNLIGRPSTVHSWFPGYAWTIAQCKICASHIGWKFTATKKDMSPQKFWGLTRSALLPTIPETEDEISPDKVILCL
Chain of UniProt P81183 (whole entry, unmodified, looked up): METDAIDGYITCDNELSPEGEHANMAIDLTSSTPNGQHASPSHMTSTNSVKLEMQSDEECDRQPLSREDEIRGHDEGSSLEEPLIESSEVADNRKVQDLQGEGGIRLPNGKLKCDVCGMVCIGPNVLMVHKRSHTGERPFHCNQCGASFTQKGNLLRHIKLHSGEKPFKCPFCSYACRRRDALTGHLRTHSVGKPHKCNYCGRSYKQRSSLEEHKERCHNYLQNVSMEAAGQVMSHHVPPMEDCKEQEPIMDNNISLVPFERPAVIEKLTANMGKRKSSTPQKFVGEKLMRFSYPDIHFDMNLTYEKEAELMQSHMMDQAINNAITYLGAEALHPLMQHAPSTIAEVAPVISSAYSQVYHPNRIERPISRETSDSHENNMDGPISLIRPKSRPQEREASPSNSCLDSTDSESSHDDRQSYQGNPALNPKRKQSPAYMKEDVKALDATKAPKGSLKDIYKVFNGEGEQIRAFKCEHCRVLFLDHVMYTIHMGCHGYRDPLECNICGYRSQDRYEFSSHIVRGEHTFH
CRBN/Zinc finger protein Helios: CRBN/Zinc finger protein Helios (Homo sapiens, UniProt Q96SW2+Q9UKS7)
Chain of UniProt Q96SW2 (whole entry, looked up): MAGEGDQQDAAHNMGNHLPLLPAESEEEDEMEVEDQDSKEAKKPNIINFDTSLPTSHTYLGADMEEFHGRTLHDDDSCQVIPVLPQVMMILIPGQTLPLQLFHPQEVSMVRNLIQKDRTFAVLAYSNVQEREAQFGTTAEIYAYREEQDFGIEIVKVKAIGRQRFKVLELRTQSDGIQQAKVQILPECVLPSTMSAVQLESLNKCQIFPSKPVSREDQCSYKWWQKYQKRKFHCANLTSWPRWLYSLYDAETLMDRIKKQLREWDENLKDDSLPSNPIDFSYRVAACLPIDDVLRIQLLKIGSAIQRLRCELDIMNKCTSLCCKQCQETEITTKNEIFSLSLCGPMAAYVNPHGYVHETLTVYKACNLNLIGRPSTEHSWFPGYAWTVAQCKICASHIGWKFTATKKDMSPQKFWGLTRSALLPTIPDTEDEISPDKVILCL
Chain of UniProt Q9UKS7 (whole entry, looked up): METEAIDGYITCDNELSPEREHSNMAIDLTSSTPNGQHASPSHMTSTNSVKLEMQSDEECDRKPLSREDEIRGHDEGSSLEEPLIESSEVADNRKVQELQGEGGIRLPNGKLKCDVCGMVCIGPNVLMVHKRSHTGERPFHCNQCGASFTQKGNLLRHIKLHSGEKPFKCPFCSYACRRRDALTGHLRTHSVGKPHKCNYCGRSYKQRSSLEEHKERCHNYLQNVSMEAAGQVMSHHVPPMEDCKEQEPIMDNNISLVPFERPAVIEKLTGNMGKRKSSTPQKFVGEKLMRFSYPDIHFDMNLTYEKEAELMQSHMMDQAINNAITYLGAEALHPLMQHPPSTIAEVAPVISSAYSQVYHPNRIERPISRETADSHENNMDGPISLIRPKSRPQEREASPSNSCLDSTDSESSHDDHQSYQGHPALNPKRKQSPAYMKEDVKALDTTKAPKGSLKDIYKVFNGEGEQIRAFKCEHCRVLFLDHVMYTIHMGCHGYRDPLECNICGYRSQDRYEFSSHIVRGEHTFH
target | test | test system | conditions | protein remaining
Ikzf2/Crbn I391V | – | Crbn I391V mouse, thymus | 100 mg/kg, 24 h | 40% and 16% and 49% and 23%
CRBN/Zinc finger protein Helios | HiBiT | HEK293 | 4.115 nM, 1 h | 65% and 55.6%
CRBN/Zinc finger protein Helios | HiBiT | HEK293 | 4.115 nM, 3 h | 28.1% and 33.9%
Ikzf2/Crbn I391V | – | Crbn I391V mouse, thymus | 30 mg/kg, 6 h | 27% and 35% and 37% and 40%
CRBN/Zinc finger protein Helios | HiBiT | HEK293 | 37.04 nM, 3 h | 17.6% and 18.7%
CRBN/Zinc finger protein Helios | HiBiT | HEK293 | 12.35 nM | 20% and 15%
CRBN/Zinc finger protein Helios | HiBiT | HEK293 | 37.04 nM | 13.6% and 10.2%
CRBN/Zinc finger protein Helios | HiBiT | HEK293 | 333.3 nM, 0.5 h | 65.4% and 74.3%
Ikzf2/Crbn I391V | – | Crbn I391V mouse, spleen | 100 mg/kg, 6 h | 12% and 21% and 1% and 8%
CRBN/Zinc finger protein Helios | HiBiT | HEK293 | 0.01694 nM, 6 h | 92.7% and 86.6%
CRBN/Zinc finger protein Helios | HiBiT | HEK293 | 1000 nM, 6 h | 9.9% and 11.4%

Series 4
Structure (SMILES): C=CCN1C(=O)C(O)(C(=O)O)Oc2cc(F)ccc21 (stereo not shown)
organism | test | test system | conditions | scale | inhibition
Amaranthus retroflexus | fresh weight | – | 150 g ai/ha, post-emergence treatment | – | 53.3% and 59.2% and 60.3%
Arabidopsis thaliana | hypocotyl length | Col-0 | 25.0 µg/mL, 7 days, seed germination, dark | – | 18.3%
Arabidopsis thaliana | root length | Col-0, seedlings | 6.25 µg/mL | relative to: water control | 17.6%
Avena fatua | fresh weight | – | 150 g ai/ha, pre-emergence treatment | – | 34.1% and 40.7% and 36.2%
